Measured values of several laboratories.
A part holds a random share of what one study measured.

Set 1
Target: Interferon regulatory factor 7, full length, phosphomimetic (IRF7, Homo sapiens, UniProt Q92985, residues 1-503, S101K/S471D/S472D/S475D/S476D/S477D/S483D/S484D/S487D)
Sequence of UniProt Q92985 (whole entry, unmodified, looked up): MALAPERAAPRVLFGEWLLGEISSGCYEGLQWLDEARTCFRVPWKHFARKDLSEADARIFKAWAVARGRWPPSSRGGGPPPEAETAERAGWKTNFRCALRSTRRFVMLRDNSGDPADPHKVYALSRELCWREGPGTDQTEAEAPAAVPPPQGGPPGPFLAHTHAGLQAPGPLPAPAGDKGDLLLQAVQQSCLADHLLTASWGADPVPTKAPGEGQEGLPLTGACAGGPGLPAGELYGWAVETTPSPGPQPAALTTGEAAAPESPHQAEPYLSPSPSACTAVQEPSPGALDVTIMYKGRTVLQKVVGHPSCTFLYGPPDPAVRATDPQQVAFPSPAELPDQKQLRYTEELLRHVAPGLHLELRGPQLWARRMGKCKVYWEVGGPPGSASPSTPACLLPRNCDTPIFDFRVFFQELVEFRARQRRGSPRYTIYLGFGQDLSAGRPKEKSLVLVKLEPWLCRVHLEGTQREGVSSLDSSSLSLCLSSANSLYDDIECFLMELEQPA
Method: protein-binding microarray
Molecule type: double-stranded DNA, one strand shown
Matrix: in vitro
Concentration: 250 nM
Setting: 60-bp whole probe
Together with: salmon DNA 0.4 mg/ml
Baseline: random background probes
Reading: higher = stronger binding
Shared flanks, not repeated: GCCTAGCAC … GTCTTGATTCGCTTGACGCTGCTG
| Sequence | log fluorescence |
| --- | --- |
| GTGAATATATGTATATATGTGTGCTAG | -0.101 z-score |
| GACGGTTTCGGGACTAGGGACGTGCTA | 3.95 z-score |
| TTAGGTGTCCTTCTCCTTTAGTGCTAG | -0.123 z-score |
| TCAAGCTTCTTTTTTATACTGTGCTAG | -0.0622 z-score |
| TTAGGTTTCGACTATCGCTTAGTGCTA | 5.17 z-score |

Set 2
Target: Histone acetyltransferase KAT6A, both winged helices, GST fusion (KAT6A, Homo sapiens, UniProt Q92794, residues 1-181)
Method: protein binding microarray
Molecule type: double-stranded DNA, one strand shown
Matrix: in vitro
Concentration: not given
Setting: 8-mer, flanks averaged, mean of 2 arrays, mostly near background
Baseline: not given
Reading: higher = stronger binding
Target sequence (chain): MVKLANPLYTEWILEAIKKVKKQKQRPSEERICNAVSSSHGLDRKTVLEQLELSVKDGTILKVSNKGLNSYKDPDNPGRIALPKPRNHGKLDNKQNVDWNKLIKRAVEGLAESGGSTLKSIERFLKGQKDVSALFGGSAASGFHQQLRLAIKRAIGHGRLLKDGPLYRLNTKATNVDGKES
| Sequence | E-score |
| --- | --- |
| CCAGCGGC | 0.254 |
| AGCGCTAG | 0.155 |
| AGTGGTAA | -0.145 |
| CACCAGTG | -0.137 |

Set 3
Target: Transcription factor Sp1 (SP1, Homo sapiens, UniProt P08047, residues 1-785, full length assumed)
Sequence of UniProt P08047 (whole entry, looked up): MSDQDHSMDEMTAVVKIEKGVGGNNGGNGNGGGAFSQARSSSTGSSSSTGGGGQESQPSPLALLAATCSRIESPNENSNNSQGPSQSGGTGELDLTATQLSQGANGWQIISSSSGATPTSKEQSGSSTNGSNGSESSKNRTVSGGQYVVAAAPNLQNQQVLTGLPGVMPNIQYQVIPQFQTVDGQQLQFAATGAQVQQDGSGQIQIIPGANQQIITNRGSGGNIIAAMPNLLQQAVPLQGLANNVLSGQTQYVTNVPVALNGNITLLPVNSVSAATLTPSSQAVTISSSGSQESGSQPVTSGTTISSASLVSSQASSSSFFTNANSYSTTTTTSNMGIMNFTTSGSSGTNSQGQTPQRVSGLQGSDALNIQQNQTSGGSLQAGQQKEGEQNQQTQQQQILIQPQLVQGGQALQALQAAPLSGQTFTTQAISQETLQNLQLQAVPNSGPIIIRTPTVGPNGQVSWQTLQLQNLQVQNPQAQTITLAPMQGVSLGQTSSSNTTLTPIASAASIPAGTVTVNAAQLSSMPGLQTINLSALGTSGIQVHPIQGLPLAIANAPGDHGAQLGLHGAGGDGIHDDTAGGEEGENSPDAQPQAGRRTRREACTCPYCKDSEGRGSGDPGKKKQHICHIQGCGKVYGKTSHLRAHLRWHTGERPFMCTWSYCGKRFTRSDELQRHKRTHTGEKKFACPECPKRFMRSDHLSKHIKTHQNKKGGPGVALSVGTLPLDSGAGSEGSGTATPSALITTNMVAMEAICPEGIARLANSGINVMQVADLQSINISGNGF
Method: protein-binding microarray
Molecule type: double-stranded DNA, one strand shown
Matrix: in vitro
Concentration: not given
Setting: k-mer, scored over probes, only values ≥0.25
Reading: higher = stronger binding
| Sequence | E-score |
| --- | --- |
| CCCCCGCC | 0.372 |
| GTAAGGTA | 0.264 |
| AATCAACA | 0.272 |
| GGTGTGGA | 0.263 |
| ACCCCTTC | 0.369 |
| ATTACCCC | 0.301 |

Mixed results
| Molecule | target | test | system | setting | scale | endpoint | value |
| --- | --- | --- | --- | --- | --- | --- | --- |
| PhoQ, residues 284 288 289 292 302 303 SLSVQF | PhoP, residues 12 14 15 18 19 SGWQI (Escherichia coli, UniProt P23836) | Sort-seq, item: YFP reporter | E. coli | PhoQ-PhoP variant library, together with: 10 µM Mg2+ | baseline: high Mg2+ state, higher = stronger signaling | fold induction | 5.61 |

Some of these lines once more (set 2):
| Sequence | E-score |
| --- | --- |
| AGCGCTAG | 0.155 |
| AGTGGTAA | -0.145 |
